Assay results from different studies.
Each numbered part is a random draw from the data of one study; scales do not carry over between parts. Substitutions count along the parent as printed.

Study 1 — method: aptamer microarray, sandwich; molecule type: DNA with 2'F-ANA; medium: in vitro; concentration: 200 nM; together with: Cy3 exosite-II aptamer, 400 nM; direction: higher = stronger binding; strand: GGTTGGTGTGGTTGG
Target: Prothrombin, mature alpha-thrombin (F2, Homo sapiens, UniProt P00734)
Setting: whole 15-mer aptamer, many near background
Modification	mean fluorescence intensity [a.u.]
2'F-ANA at 2 6 7 8 9 10 11 13 14 15	82.6
2'F-ANA at 1 3 4 5 6 8 9 12 13	82
2'F-ANA at 2 8 9 12 13 14	170
2'F-ANA at 4 6 10 11 15	87
2'F-ANA at 1 10 11 13 14	80.3
2'F-ANA at 1 2 6 7 10 11 15	73.8
2'F-ANA at 7 9 12 15	801
2'F-ANA at 1 2 6 9 10 13 15	54.6
2'F-ANA at 1 4 6 9 11	80.2
2'F-ANA at 3 4 5 11 13 14 15	56.9
2'F-ANA at 1 2 3 4 5 8 9 12 13	76.4
2'F-ANA at 1 2 3 5 6 7 9 10 11 12 13	73.4
2'F-ANA at 6 11 12 14 15	213
2'F-ANA at 1 3 4 6 7 8 9 10 11 13 15	59.4
2'F-ANA at 7 8 9 13	489
2'F-ANA at 2 7 10 15	157
2'F-ANA at 3 5 7 9 12 14 15	57.1
2'F-ANA at 4 6 7 8 9 10 13 14	59.2
2'F-ANA at 2 3 4 9 11 12 13 14 15	279
2'F-ANA at 1 8 9 11 12 14	67.3
2'F-ANA at 1 3 5 6 10 11 12 14	46.2
2'F-ANA at 1 2 6 10 11 12 14	52.2

Study 2 — method: DHFR PCA, deep sequencing; medium: yeast; together with: (+)-ABA 0.11 µM; baseline: wild-type fitted maximum; direction: higher = stronger binding
Target: ABI1, truncated, D143A, DHFR fusion (Arabidopsis thaliana)
Setting: methotrexate growth selection, single substitutions
Parent: PYL1, truncated, DHFR fusion (Arabidopsis thaliana); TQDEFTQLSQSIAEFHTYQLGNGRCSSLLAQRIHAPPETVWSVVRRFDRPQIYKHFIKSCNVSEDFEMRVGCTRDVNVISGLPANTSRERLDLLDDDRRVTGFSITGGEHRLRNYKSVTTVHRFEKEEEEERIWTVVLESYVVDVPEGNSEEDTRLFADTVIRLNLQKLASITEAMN; partner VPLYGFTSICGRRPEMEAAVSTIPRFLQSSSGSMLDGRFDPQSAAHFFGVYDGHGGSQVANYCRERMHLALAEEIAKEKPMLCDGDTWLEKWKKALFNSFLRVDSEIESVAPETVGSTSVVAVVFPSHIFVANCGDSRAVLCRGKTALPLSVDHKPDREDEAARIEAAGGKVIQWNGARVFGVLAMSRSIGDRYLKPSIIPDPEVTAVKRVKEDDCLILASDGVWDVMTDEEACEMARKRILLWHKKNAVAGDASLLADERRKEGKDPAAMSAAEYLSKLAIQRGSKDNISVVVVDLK
Change	relative binding score
A170K	62.7%
R113P	76.5%
K116I	1.08%
T17P	2.02%
V76Y	0.664%
G148F	-13.9%
S9D	15.3%
I172M	5.87%
Y115V	-7.47%
V121R	-1.7%
V161Y	17.8%
S9R	59.3%
Q10S	45.2%
K168I	-7.19%
K126E	38.9%
E127K	52.4%
H55S	30%
R155Q	7.56%
E109S	9.11%
R155T	4.75%
K54D	1.32%

Study 3 — target: CCNB3, cyclin fold, Cln2 fusion (human); method: yeast growth competition, sequencing; medium: yeast; setting: weak parent motif; baseline: not given; direction: higher = stronger binding
Parent: E2F1 docking peptide (human); PPVKRRLDLETDH
Change	normalised enrichment score
L7K	-0.0371
V3M	0.0432
D8M	0.222
V3D	0.0397
L7H	0.00925
R6P	0.0181
T11R	0.237
V3G	0.0409
T11N	-0.0933
P2W	0.0616
E10M	0.225
P2H	0.606
K4C	0.413
R6I	0.411
E10R	0.0982
D8P	0.134
R6F	-0.172
E10C	0.143
D12R	0.306
D8K	0.463
R5S	0.0395
P2V	0.334

Study 4 — method: RNA Bind-n-Seq; molecule type: RNA; medium: in vitro; concentration: 365 nM; baseline: no-protein control; direction: higher = stronger binding
Target: RNA binding protein fox-1 homolog 2, RRM domain, GST-SBP tag (RBFOX2, Homo sapiens, UniProt O43251-10, residues 100-194)
Setting: natural RNA segment, single round, ends assumed
Target sequence (chain): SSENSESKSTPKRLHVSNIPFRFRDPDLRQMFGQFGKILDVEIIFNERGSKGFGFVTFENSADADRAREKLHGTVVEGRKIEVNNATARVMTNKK
Strand	RBNS enrichment (R)
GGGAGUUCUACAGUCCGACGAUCGUUCCCAUCUCACCUCACCAUUCCGCUAUAAGGCUUUUUAGCAUUUUAGGGCCAGGAGAGAGAGAGAGAGAGAGAAGCCCCUUCGGGUUUGAAAAUGAAGGACUGCCUUGUGGAAUUCUCGGGUGCCAA	0.329
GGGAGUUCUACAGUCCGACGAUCGCCUUUCCUCUGGCCCUGCUGCCCCCACACCCAACUCCGAGGGCCCACGCUGGGGAAAGCGGGAAGCGCUCGCUCCCUUUCCCCCAUUAGUGCUCUCUCUGCCUGGAUCCUGGAAUUCUCGGGUGCCAA	0.325
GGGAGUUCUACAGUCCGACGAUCGCUGACCCAGUCCCUGGGGGAAGCCCUGGAUUUCAGAAAGAGCAAGUCUGGAUCUGGGACCCUUUCCUUCCUUCCCUGGCUUGUAACUCCACCAACCCAUCAGAAGGAGAUGGAAUUCUCGGGUGCCAA	0.311
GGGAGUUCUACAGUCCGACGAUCCAGCUCAGGACGUGGGGCCGAUCUGUGUGAGUCCAGCAUGUACCUGUGUCCCCCGUAGUAUCCCCGCAGCCCAGGCCGACGAGGCCCACCCCUGGACUUGAUCAGUAUUCUGGAAUUCUCGGGUGCCAA	4.89
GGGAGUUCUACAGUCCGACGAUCCUUAUAUUGUGGCAUAUAGUCAACAUGGAAGUAGACCAGCUCUGCUGAUUUGAAAUUUAGAUUUUUUAAAUUAUGUACUGGGGACAGGUUUUUGUCGCUUUACAUUGCUUUGGAAUUCUCGGGUGCCAA	0.5
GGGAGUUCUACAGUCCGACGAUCAACUUCGCCCAGUCACAGUGUUGUGACAUCCUAGAGGCUUGAGUGACAGCAGGUGACCUUGUCUGCCAAGAUCUUCCUUUUGAGUGUUUAAGCCCAACUACUUGUCAUAUUGGAAUUCUCGGGUGCCAA	0.228
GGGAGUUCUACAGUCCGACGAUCGAGAAAUAGGAACACUUUCACACUGUUGGUGGGACUGUAAACUAGUUCAACCAUUGUGGAAGUCAGUGUGGCGAUUCCUCAGGGAUCUAGAACUGGAAACACCAUUUGACUGGAAUUCUCGGGUGCCAA	0.278
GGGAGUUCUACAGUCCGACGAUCAGGAAUAUGGCCGGACAGGAGACUUACUUGUGGAGAAGGGACAGACCAGGCCUUCCCUCUAGGGCUUCUGGCUACUUGCUGCAGUUCUUUGUCAGCGAGGCUCCCUGCCAUGGAAUUCUCGGGUGCCAA	0.432
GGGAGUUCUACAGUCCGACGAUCAUGCACCUUGAGAUAAUUUAGUGUUUUUAACUGGUACAUAAUUUAUCAAGCAGUACAUGAAAGUGUAAUAAUAAAAUGUCUAUGUAUCUUUAGUUACAUUCAGAUUUGUAUGGAAUUCUCGGGUGCCAA	0.646
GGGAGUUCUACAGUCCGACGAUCUUCUGGCUCAGAUGUGUGCAUCCUUUUAGAGCUGUUGUGGGUGUAAGUGACAUGAUGUGGCCAAAAAUCCAAACUGUGCAGUUGCGUUGUGACAAACAUGCAAUGUGCUGUGGAAUUCUCGGGUGCCAA	1.01
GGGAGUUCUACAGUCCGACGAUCAAUCAAGUGGACACACUUUUGAUGUAUUUCUCAGUUACAAAGCUGACUUUUUUUUAAUGAAGGGAAUAAUUGCCAAGUACUUAAAUCUACCUGAGGUACACUUUUAAACCUGGAAUUCUCGGGUGCCAA	0.54
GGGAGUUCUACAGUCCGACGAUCAUCCAUUGCUCAAUGGUACAGAGUGUGGGGUCAGUCCACCACCCUUGACCUCCCGGCAGGGCAAGGUGAGGAGGCGGACCCAAAGCAGUACCAGCAGGACUUGUUGCCAGUGGAAUUCUCGGGUGCCAA	0.378

Study 5 — method: universal PBM; molecule type: double-stranded DNA, one strand shown; medium: in vitro; concentration: 600 nM; direction: higher = stronger binding
Target: Sal-like protein 4, full length isoform A (SALL4, Homo sapiens, UniProt Q9UJQ4, residues 1-1053)
Sequence of UniProt Q9UJQ4 (whole entry, looked up): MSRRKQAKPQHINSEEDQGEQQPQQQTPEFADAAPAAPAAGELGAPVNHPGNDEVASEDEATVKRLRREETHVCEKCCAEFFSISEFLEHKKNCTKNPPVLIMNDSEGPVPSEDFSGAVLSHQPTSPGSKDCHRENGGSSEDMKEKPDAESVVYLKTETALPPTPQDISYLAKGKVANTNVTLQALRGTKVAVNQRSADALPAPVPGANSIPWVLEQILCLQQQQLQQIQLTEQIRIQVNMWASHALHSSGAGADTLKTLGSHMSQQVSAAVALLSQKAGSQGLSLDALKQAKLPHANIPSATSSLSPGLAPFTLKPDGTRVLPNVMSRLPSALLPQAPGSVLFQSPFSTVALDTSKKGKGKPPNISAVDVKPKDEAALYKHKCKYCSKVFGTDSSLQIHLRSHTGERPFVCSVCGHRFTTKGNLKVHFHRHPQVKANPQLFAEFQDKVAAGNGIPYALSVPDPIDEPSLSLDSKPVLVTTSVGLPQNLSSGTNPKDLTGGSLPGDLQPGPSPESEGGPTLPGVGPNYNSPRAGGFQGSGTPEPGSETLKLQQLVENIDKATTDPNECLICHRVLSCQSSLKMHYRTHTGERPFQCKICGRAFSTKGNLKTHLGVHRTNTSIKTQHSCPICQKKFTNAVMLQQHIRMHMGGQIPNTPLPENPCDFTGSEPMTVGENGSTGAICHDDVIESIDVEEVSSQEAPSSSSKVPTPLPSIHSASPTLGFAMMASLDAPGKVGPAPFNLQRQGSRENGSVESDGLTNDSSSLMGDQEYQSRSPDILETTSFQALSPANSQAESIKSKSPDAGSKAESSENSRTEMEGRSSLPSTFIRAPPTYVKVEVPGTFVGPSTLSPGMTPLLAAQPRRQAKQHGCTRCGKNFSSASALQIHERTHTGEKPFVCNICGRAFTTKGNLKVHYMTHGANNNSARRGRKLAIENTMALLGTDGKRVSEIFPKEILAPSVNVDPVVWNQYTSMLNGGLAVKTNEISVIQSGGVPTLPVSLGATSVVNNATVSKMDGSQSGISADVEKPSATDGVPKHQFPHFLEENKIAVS
Setting: 8-mer, flanks averaged, mean of replicates
Strand	E-score
GCATTACC	-0.0314
CACCTACA	-0.0274
GAGCCTAA	-0.0133
ACCGGAGA	-0.0812
TAAGATCA	0.149
AAATTAAG	0.217
CTGAGCTA	-0.185
CACTCATG	0.089
CTATGACC	0.122
CTTGTCTC	-0.14
CAGTTAAG	0.0488
AGGTATGA	0.142
ACGGCGCC	-0.26
GATTTCTA	0.223
CACGAGGG	-0.309
CTAGTCCA	-0.0572
ATTCCCTC	-0.0845
CGGATTAA	0.0732
GACGGAAC	-0.156
AATAGCGT	0.197
GTGTTTCA	0.0612
GATCGGTA	0.0643
AATTCGGT	0.0849
GTTCCATA	0.106

Study 6 — method: EMSA with sequencing; molecule type: double-stranded DNA, one strand shown; medium: in vitro; concentration: 10 and 20 nM; baseline: negative control set to 0; direction: higher = stronger binding
Target: Hepatocyte nuclear factor 3-alpha (Foxa1, Mus musculus, UniProt P35582, residues 1-468, full length assumed)
Sequence of UniProt P35582 (whole entry, looked up): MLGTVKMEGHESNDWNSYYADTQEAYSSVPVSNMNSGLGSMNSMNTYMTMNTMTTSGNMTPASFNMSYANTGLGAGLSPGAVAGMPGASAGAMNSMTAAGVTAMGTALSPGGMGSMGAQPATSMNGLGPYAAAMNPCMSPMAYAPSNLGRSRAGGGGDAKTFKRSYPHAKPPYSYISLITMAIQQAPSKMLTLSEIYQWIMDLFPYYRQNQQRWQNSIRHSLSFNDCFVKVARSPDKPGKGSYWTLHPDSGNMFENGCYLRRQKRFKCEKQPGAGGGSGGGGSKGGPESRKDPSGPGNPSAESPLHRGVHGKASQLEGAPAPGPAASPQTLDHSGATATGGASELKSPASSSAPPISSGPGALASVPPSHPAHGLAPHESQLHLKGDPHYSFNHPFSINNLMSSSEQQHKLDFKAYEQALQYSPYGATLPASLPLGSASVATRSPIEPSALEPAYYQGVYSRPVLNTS
Setting: whole designed probe, mean of two concentrations, ends assumed
Strand	normalised bound fraction
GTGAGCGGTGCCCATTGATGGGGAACTTTTTTCCACTTTGCATGCTTGCTTGTGCCTTTTCTCCTGATACTCCTATCTAACTAGAGATTTATTTTCACATTATTTTAGATTACTCTCCCATGTTTACTCTGAAAATCTGTGGCACTCATATTTCATAGTGTAAAATTGTAGCAATCTGAGACTACTACAGTTGTTAGCCTCTTCTCCTTATAACCAGTATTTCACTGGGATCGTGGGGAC	0.135 ratio
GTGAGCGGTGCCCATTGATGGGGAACTATTATGAGCTGGACCTTGCTTAGCCCCAGCTGGGTTCTTGCTTCCCATCCTCCTCCCTGCCTGCTGCTTCCCTGAGTCATGCCCACTGCAATGTAAATAACAGGGCAGCTCCTAGGAGCTTGCAATGACAGCAATAGTGGGAGGAACAAGAGGGAAGGGAGCAACTGTTTTGTTTTGTTCGAAATGGTGTCTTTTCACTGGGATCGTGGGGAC	0.409 ratio
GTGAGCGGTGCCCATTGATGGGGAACAATATTGCTTCCATACGTTCTGTTGCTTAAGTTCACCTCTGCCTCTAGGGCTCACACTTGTATTCCTTTTGCCTGGACTGCTTTTTCCCCAAAAAATTACACAGCTGGCTACTTGTTCTTGTCACTCAAACACACTTGAGTATCACTCTCAGAGATACTTTGTTGAGTTCCTCATCTAATACATCCACTACATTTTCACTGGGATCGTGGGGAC	-0.0406 ratio
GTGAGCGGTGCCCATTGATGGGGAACTTATGATCTGAGTATATATAGTAAGTACCTCCCCTTTCAGGGTAAGGCAGTAGGTAATGGTGAAAAGGTGACTCAGGTACAGGGAAGCATGAGTAAACAACACCAAGCATATCTGACTCAAGGAATGCTTCAGAGGCCAGGGGTGCATGCCTGTAATCCCAGCACCTTGGAAGGCTGACACAGGAGGATCACTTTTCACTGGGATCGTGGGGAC	0.375 ratio
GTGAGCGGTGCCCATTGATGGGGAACATCTTCCCCCTCTTCCTTGCCCCACCAGCTCACCTTCCCGGGTTATTTGCACAAAGGAAAATAAATAAAGCCGGCATTCGTTAACCCTCTTCACGCGCATACTGCTGTTTGCTCTGGATGAATCATGGTCCTTTGGCGAGGCGTGGCTCCGGGAGAGCAAAGCACCGTGTCAGGGCCATGATCCGGGCTCGCCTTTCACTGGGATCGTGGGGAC	0.374 ratio
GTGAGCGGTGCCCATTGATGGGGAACGCATAAGCATTGCCAAGCCCAGATCTAATGGATAGTCACTTCAAGGCTGCTCTGTGTGGAAGCCTTACTCTTGTTTTTTTCACCTGCCTATCCAGATGACCTATTTATTTTTATGTGAATGTCATTGTTTTATTCGCTTTAACAATATATTACATTTTGTGTCTGGTAATATAAGTCATTCTTTAATAATCTTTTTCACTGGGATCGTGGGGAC	0.0508 ratio
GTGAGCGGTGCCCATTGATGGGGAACCGCGCCCGGACAGGACATGGGGGTTTCTAAACAAGGCTCTTCAGTATCAGCTCATTGTGAGTCACAGATCAGATCTGCCCAGTTCTCTTTTGCTGTTGACATTGTTGTTTCCTCTGCAGGATTCAGCAGTACTGAAAGGGTTATTCAGTCCCAACATGGGATCTTTACACAAGAAGGGGAGCTTGTGAAATGCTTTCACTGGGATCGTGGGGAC	0.126 ratio
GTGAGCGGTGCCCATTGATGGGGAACAACAAACAAATAAAACAACTAGTATGGAAGCTAGAATAATGTGATGCACCATTACACCAAATATTCAGTCTTAACATGGTTTTTAATATTATGTAATCTTGGAAGGTATTGCCATTGTTCATATGATACAGAATCAATGGTACTCACAATCATCTGAATATGTTGAAAAATGGCATCTTCAAATAAAAATTATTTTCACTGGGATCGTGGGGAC	0.273 ratio
